# Published values pooled from the literature.
# Lines come from different studies, so protocols differ. Several values in a cell are separate wells, animals, samples, runs or records. ± gives the spread as reported.
Compound,organism,test,system,setting,IC50
CC(C)(C)CC(C)(C)Nc1c(-c2ccc3c(c2)OCO3)nc2ccccn12,Leishmania amazonensis,fluorimetry,"peritoneal macrophages, RFP","72 h, intracellular amastigotes",> 100 µM
CC[C@H](C)[C@H](NC(=O)CNC(=O)[C@H](CO)NC(=O)[C@H](CC(C)C)NC(=O)[C@@H](N)Cc1ccccc1)C(=O)N[C@H](C(=O)NCC(=O)N[C@@H](CCSC)C(=O)N[C@@H](CC(C)C)C(=O)NCC(=O)N[C@@H](CCCCN)C(=O)N[C@@H](CC(C)C)C(=O)N[C@@H](Cc1ccccc1)C(N)=O)C(C)C,Leishmania mexicana,"intracellular amastigote growth, Giemsa staining",infected macrophages,48 h,6.7 µM and 6.73 µM
CC1N=C(CCCCCCCCCCC2=CC(CCCCCCCCCCC3=NC(C)C(O)CC3)C3CCCN3C2)CCC1O (stereo not drawn),Leishmania donovani,"cell growth, inhibitor, Alamar Blue",axenic amastigotes,"72 h, 37 °C",1.8 mg/L and 1.83 mg/L
O=C(C1CCN(c2nnnn2-c2ccccc2)CC1)N1CCCc2ccccc21,Plasmodium falciparum,,"erythrocytes, Dd2, pi4k variant",,0.778 µM
Cc1cccc2c1NC(=O)C2=Cc1ccc(-c2cccc(C(=O)N3CCCN(C)CC3)c2)o1 (mixture of isomers),Trichuris muris,adult worm motility,,24 h,17.2 µM
CC(=O)[O-].F[P-](F)(F)(F)(F)F.[Ni+2].c1ccc(CN2CCN3CCN(CC2)CCN(Cc2ccccc2)CC3)cc1,Leishmania donovani,,"THP-1-derived macrophages, intracellular amastigotes",,> 20 µM
CC(C)[C@@H]1NC(=O)[C@H](CCCNC(=N)N)NC(=O)[C@H](Cc2ccc3ccccc3c2)NC(=O)[C@H](CCCNC(=N)N)NC(=O)CSC[C@@H](C(N)=O)NC(=O)[C@H](CCCNC(=N)N)NC(=O)[C@H](Cc2ccc(O)cc2)NC(=O)[C@H](CCCNC(=N)N)NC(=O)[C@H](Cc2c[nH]cn2)NC(=O)[C@H](CC2CCCCC2)NC(=O)[C@H]2CCCN2C1=O,hepatitis C virus,"viral replication, Renilla luciferase reporter",Huh7.5,48 h,0.000345 µM
[Cl-].[Cl-].[Ni+2].c1ccc(CN2CCNCCN(Cc3ccccc3)CCNCC2)cc1,Leishmania donovani,"parasite growth, resazurin",,"72 h, promastigote",18.6 µM
CC=C1NC(=O)[C@H](Cc2ccccc2)NC(=O)[C@H](C(C)C)NC(=O)[C@H](Cc2ccccc2)NC(=O)[C@H](CCC(N)=O)NC(=O)[C@H](Cc2c[nH]c3ccccc23)NC(=O)C2CSC[C@@H](C(=O)N[C@@H](CO)C(=O)O)NC(=O)[C@H](CSCC3NC(=O)[C@H]([C@@H](C)CC)NC(=O)C(NC(=O)[C@H](Cc4c[nH]cn4)NC(=O)[C@@H](NC(=O)[C@@H](NC(=O)CNC(=O)[C@H](CO)NC(=O)CNC(=O)CNC(=O)[C@@H](N)CCCCN)C(C)C)[C@@H](C)CC)C(C)SC[C@H](NC(=O)[C@H](CCC(=O)O)NC(=O)[C@H](Cc4c[nH]cn4)NC3=O)C(=O)N[C@@H](CC(N)=O)C(=O)N[C@@H](CCSC)C(=O)N[C@@H](CC(N)=O)C(=O)N2)NC1=O (stereo partly drawn),Lactococcus lactis,cell growth,HP,,0.785 ± 0.019 µM

# Repeated from above:
Compound,organism,test,system,setting,IC50
CC(=O)[O-].F[P-](F)(F)(F)(F)F.[Ni+2].c1ccc(CN2CCN3CCN(CC2)CCN(Cc2ccccc2)CC3)cc1,Leishmania donovani,,"THP-1-derived macrophages, intracellular amastigotes",,> 20 µM
